Published values pooled from the literature.
± gives the spread as reported.
PPARG ligand-binding domain: Peroxisome proliferator-activated receptor gamma, ligand-binding domain (PPARG, Homo sapiens, UniProt P37231)
Chain of UniProt P37231 (whole entry, looked up): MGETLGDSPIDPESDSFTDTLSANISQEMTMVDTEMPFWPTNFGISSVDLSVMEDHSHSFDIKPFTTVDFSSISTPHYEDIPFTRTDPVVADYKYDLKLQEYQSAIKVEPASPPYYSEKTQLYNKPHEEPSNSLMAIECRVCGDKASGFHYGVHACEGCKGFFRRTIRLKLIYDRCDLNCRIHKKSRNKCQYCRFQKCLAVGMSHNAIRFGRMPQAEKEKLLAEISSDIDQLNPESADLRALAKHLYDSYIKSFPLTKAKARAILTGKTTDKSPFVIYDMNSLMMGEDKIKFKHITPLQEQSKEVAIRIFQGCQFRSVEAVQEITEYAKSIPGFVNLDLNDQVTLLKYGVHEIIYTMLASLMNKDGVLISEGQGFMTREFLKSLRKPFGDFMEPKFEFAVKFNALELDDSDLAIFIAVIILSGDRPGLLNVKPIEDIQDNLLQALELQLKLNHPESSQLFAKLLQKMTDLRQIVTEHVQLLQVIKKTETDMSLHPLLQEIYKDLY
Rhomboid protease AarA: Rhomboid protease AarA (Providencia stuartii, UniProt P46116)
Chain of UniProt P46116 (whole entry, looked up): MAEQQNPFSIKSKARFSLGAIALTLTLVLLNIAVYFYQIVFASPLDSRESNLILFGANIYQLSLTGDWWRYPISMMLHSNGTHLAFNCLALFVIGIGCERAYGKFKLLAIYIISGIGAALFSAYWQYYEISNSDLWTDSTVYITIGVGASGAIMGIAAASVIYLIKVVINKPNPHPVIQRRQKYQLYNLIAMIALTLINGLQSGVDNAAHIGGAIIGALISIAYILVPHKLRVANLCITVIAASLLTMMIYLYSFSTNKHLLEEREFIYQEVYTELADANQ
PPARG: Peroxisome proliferator-activated receptor gamma (PPARG, Homo sapiens, UniProt P37231)
Chain of UniProt P22309 (whole entry, looked up): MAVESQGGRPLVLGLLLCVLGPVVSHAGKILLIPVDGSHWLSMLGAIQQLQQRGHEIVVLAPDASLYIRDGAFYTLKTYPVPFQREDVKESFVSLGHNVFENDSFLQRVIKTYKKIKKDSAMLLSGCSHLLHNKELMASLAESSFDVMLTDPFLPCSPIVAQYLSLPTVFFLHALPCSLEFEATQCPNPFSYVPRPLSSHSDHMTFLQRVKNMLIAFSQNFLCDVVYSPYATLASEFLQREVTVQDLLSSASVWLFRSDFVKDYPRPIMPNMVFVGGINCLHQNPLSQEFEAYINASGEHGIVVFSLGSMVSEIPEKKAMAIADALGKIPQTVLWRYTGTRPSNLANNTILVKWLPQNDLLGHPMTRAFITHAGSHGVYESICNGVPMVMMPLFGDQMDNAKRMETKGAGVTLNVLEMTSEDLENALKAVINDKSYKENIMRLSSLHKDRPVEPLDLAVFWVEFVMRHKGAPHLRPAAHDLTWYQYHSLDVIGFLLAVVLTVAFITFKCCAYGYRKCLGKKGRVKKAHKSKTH
Chain of UniProt Q13547 (whole entry, looked up): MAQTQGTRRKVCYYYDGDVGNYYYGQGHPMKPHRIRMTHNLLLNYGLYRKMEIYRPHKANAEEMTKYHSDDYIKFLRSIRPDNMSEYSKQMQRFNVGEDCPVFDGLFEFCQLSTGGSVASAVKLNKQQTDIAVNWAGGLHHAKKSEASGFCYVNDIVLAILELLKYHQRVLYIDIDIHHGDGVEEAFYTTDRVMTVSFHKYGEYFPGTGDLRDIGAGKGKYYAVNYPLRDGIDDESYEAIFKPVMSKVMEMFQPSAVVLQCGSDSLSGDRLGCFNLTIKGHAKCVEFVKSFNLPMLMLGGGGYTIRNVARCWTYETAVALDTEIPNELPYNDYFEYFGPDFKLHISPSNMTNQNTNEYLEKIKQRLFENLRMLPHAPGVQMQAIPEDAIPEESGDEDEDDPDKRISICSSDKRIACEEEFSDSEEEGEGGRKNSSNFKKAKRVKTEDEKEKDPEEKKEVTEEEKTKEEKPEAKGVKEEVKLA
Chain of UniProt P10721 (whole entry, looked up): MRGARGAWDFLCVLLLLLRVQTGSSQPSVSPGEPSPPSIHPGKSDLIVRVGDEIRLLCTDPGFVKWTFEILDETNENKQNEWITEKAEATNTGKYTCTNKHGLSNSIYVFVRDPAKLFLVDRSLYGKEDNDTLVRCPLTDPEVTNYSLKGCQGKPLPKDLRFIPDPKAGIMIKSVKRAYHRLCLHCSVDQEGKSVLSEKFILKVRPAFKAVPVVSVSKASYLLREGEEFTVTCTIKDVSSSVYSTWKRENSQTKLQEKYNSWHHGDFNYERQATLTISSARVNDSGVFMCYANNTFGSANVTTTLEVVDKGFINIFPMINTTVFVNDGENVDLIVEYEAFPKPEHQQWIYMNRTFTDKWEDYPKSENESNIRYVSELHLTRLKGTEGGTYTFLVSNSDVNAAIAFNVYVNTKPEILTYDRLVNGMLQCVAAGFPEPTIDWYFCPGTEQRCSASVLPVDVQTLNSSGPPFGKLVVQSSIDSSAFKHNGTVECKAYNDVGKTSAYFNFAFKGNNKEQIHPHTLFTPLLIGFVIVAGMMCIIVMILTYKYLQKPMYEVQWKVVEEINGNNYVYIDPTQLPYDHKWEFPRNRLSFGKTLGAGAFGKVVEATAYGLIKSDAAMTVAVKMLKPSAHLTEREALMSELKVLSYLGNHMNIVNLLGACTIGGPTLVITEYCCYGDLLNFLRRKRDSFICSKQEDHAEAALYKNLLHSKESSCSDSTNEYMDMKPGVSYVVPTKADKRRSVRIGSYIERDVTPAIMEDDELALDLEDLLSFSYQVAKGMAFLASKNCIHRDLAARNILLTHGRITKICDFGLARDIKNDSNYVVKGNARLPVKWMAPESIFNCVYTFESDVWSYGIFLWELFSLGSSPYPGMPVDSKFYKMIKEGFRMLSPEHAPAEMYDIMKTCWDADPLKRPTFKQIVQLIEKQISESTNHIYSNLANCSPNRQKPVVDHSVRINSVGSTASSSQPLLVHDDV
Chain of UniProt P08172 (whole entry, looked up): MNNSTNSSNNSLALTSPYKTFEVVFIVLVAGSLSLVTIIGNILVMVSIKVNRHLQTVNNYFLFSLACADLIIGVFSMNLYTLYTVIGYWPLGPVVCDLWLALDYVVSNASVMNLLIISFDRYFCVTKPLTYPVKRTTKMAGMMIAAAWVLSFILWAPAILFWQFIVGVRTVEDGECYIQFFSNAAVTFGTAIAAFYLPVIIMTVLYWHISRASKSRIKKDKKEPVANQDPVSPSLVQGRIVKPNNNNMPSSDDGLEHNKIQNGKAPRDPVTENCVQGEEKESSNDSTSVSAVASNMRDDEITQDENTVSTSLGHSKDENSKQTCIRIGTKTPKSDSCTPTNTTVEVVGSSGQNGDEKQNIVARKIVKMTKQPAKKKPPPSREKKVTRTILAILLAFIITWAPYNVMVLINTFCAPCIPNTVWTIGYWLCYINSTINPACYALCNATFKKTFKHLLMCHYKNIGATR
Chain of UniProt P43358 (whole entry, looked up): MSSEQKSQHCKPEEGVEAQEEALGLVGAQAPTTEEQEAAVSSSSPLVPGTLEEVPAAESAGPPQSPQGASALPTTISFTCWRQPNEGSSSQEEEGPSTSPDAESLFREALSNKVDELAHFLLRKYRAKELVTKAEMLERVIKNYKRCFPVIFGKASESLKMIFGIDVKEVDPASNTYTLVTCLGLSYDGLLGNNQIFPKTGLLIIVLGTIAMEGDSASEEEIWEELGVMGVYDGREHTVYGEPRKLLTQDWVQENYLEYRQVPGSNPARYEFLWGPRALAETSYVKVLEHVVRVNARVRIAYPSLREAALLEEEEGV

With CC[C@H](C)[C@@H]1NC(=O)[C@H](Cc2ccc(O)cc2)NC(=O)CSC[C@@H](C(N)=O)NC(=O)[C@H](CC(N)=O)NC(=O)[C@H](Cc2c[nH]cn2)NC(=O)[C@H](Cc2ccc(O)cc2)NC(=O)[C@H](CC(=O)O)NC(=O)[C@H](Cc2ccc(F)c(F)c2)NC(=O)[C@H](CC(C)C)NC(=O)[C@H](CCCNC(=N)N)NC1=O the IC50 was 11.2 ± 4.1 nM (Melanoma-associated antigen 4, MAGE homology domain (Homo sapiens, UniProt P43358); binding, inhibitor, TR-FRET displacement; added: Alexa647-MTP-1).
O=C(CCNC(=O)CNC(=O)CC(c1ccccc1)(c1ccccc1)c1ccccc1)NC[C@@H]1CCCN(Cc2ccc(F)cc2)C1 gave an IC50 of 25500 nM (CHRM2 (Homo sapiens, UniProt P08172); ligand displacement, radioligand; cell membranes).
With Cc1nc2ccc(Br)cc2c(=O)n1N the IC50 was 27 ± 1.41 µg/mL (collagenase; enzyme activity, inhibitor; added: casein substrate).
The IC50 of Cc1nc2cc(C(=O)N[C@@H](C)c3ccc(C(C)(C)C)cc3)ccc2n1Cc1cccc(OC(C)(C)C(=O)O)c1 is reported as 43400 nM (PPARG ligand-binding domain; reporter gene, luciferase reporter; HEK293T, Gal4-PPARγ LBD).
For CCCCCCCC(=O)Nc1ccc(Nc2ncc(F)c(-c3cc(F)c4nc(C)n(C(C)C)c4c3)n2)cc1, the IC50 was greater than 1000 nM (HDAC1 (Homo sapiens, UniProt Q13547); enzyme activity, inhibitor).
For CCOc1ccccc1NC(=O)C(C(F)(F)F)C(F)(F)F, the IC50 was 3500 nM (Rhomboid protease AarA; enzyme activity, inhibitor, fluorescence).
COC1CN([C@H]2CC[C@H]([C@@]3(C)Oc4c(Cl)cc(C(=O)NCc5c(SC)cc(C)[nH]c5=O)c(C)c4O3)CC2)C1 — result for “log2 fold change”: 1.12 (RNA-seq, refers to: TLCD2; human, whole blood; dose not given, 24 h; relative to: pretreatment baseline).
Cc1nn(-c2ccccc2)nc1CNC(=O)C(C(F)(F)F)C(F)(F)F has an IC50 of 3300 nM (Rhomboid protease AarA; enzyme activity, inhibitor, fluorescence).
For Cc1nn(-c2cccc(N)c2)c(=O)c2cnc(Nc3ccc(N4CCNCC4)cc3)nc12, the IC50 was greater than 10000 nM (KIT (Homo sapiens, UniProt P10721); kinase activity, inhibitor, SelectScreen kinase profiling).
The IC50 of CC(C)Cn1cc(Cc2cccc(OC(C)(C)C(=O)O)c2)c2ccc(C(=O)N[C@@H](C)c3cccc(C(C)(C)C)c3)c(F)c21 is reported as 50 nM (PPARG ligand-binding domain; reporter gene, luciferase reporter; HEK293T, Gal4-PPARγ LBD).
CCCC(=O)OC1CCC2(C)C(CCC3(C)C2CC=C2C4C(C)C(C)CCC4(C(=O)O)CCC23C)C1(C)C (centres unmarked) has an IC50 of greater than 100000 nM (UGT1A1 (Homo sapiens, UniProt P22309); enzyme activity, inhibitor).
With Cc1c(Cc2ccc(Cl)c(O[C@H](C)C(=O)O)c2)c2ccc(C(=O)N[C@@H](C)c3ccc(C(C)(C)C)cc3)cc2n1C the IC50 was 2.18 nM (PPARG; ligand displacement, TR-FRET).
The IC50 of C[C@@H](NC(=O)C(C(F)(F)F)C(F)(F)F)c1ccccc1 is reported as 23000 nM (Rhomboid protease AarA; enzyme activity, inhibitor, fluorescence).
With Cc1c(Cc2ccc(Cl)c(OCC(=O)O)c2)c2ccc(C(=O)NCc3ccc(C(C)(C)C)cc3)cc2n1CC(C)C the IC50 was 0.79 nM (PPARG; ligand displacement, TR-FRET).
For Cc1cc(C(=O)NCC(F)(F)c2ccc(Cl)cc2Cl)c(Oc2cccc(C3CC3)c2)nn1, the IC50 was 2610 ± 85 nM (serine palmitoyltransferase (Zymoseptoria tritici, UniProt F9X349+F9XMN6)).
Cc1c(Cc2ccc(OC(C)(C)C(=O)O)cc2)c2ccc(C(=O)N[C@@H](C)c3ccc(C(C)C)cc3)cc2n1C gave an IC50 of 39 nM (PPARG; ligand displacement, TR-FRET).
For Cn1cc2c(n1)CN(C(=O)Nc1nc(-c3ccc(F)cc3)ccc1N)C2, the IC50 was greater than 150000 nM (Lysine-specific histone demethylase 1A, with CoREST (KDM1A, Homo sapiens, UniProt O60341); demethylase activity, inhibitor; LSD1-CoREST complex).
